Results collected from several papers.
Parts stem from different laboratories: compare values within a part only.

Study 1 — technique: competition protein-binding microarray; molecule type: double-stranded DNA, one strand shown; medium: in vitro; concentration: 2 µM; together with: Pho4 competitor, 0.05 µM; direction: higher = stronger binding; endpoint: fluorescence intensity; constant ends, left off below: … GTCTTGATTCGCTTGACGCTGCTG
Target: Centromere-binding protein 1, full length, His-tagged (CBF1, Saccharomyces cerevisiae, UniProt P17106, residues 1-351)
Sequence of UniProt P17106 (whole entry, looked up): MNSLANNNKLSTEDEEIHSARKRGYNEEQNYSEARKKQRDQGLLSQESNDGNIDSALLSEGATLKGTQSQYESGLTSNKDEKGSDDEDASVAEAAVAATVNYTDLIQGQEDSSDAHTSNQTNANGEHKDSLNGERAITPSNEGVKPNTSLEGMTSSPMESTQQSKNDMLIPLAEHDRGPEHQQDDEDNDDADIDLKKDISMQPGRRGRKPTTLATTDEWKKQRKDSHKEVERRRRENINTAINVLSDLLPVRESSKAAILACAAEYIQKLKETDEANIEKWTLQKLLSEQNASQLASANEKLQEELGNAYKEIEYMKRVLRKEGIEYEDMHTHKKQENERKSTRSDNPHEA
Notes: whole 60-bp probe, lowest competitor level
CCACTGCCACTATTGCACGTAACGCCATTTTTCCAA: 76.8 a.u.
AAAGCGGTAATTTGAACTGTGGGTGCAGATATCTAT: 71.9 a.u.
TGCGCAACAACTTGCACTGTGGGTGTATGTCTAGAA: 71.7 a.u.
CATACCCAACCTTGATCGGTGGGTGAAGATATTTGT: 68.1 a.u.
AAATTACTAAGTTGAATAGTGGGTGACGCCGTATGA: 78.8 a.u.

Study 2 — technique: protein-binding microarray; molecule type: double-stranded DNA, one strand shown; medium: in vitro; concentration: 250 nM; notes: 60-bp whole probe; together with: salmon DNA 0.4 mg/ml; relative to: random background probes; direction: higher = stronger binding; endpoint: log fluorescence; constant ends, left off below: GCCTAGCAC … GTCTTGATTCGCTTGACGCTGCTG
Target: Interferon regulatory factor 7, full length, phosphomimetic (IRF7, Homo sapiens, UniProt Q92985, residues 1-503, S101K/S471D/S472D/S475D/S476D/S477D/S483D/S484D/S487D)
Target sequence (chain): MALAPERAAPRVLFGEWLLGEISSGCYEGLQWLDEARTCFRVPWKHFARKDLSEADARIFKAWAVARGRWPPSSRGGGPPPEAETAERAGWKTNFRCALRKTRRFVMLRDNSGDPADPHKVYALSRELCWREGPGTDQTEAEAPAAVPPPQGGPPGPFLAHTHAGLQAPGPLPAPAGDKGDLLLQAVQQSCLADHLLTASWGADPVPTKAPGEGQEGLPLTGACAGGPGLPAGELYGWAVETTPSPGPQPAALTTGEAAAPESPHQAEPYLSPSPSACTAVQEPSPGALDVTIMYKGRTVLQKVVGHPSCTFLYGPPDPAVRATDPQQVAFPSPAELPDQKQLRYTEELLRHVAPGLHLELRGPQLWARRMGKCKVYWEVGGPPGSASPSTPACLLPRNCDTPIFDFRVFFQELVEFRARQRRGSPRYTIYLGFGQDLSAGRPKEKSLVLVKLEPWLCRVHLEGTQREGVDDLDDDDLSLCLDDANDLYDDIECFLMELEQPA
GAAGGTTTCGACACTGGGGACGTGCTA: 3.19 z-score
TTAAGTTTCGACTTTCGGTTAGTGCTA: 12.3 z-score
TCAAGTCTGGGCTACAACTTGGTGCTA: -0.578 z-score
TTAGGTATCGGGTTTCGGTTAGTGCTA: 7.39 z-score
GACGGACAGCTTATCCTGACGTGCTAG: -0.511 z-score
GACGAGATCAGTTTCGAGACGTGCTAG: 4.34 z-score
GACGGTATCGGTTTCCGGACGTGCTAG: 5.9 z-score

Study 3 — technique: protein binding microarray; molecule type: double-stranded DNA, one strand shown; medium: in vitro; concentration: not given; relative to: not given; direction: higher = stronger binding; endpoint: E-score
Target: Histone acetyltransferase KAT6A, both winged helices, GST fusion (KAT6A, Homo sapiens, UniProt Q92794, residues 1-181)
Notes: 8-mer, flanks averaged, mean of 2 arrays, mostly near background
Target sequence (chain): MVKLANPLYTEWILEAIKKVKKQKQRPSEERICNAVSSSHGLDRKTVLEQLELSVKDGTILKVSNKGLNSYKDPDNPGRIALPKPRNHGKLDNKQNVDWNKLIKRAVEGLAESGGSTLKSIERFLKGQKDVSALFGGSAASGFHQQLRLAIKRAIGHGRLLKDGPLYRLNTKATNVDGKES
CCTACTAG: -0.229
ACACCAGC: -0.0841
ACGGCTCG: 0.219
TGGCGCAA: 0.242
AGCTGAAT: -0.126
ATAAGCCA: -0.225
TAATTACA: -0.136

Other studies, line by line
PhoQ, residues 284 288 289 292 302 303 AQGLTV — fold induction (PhoP, residues 12 14 15 18 19 HLGGL (Escherichia coli, UniProt P23836); Sort-seq, item: YFP reporter; E. coli; PhoQ-PhoP variant library, together with: 10 µM Mg2+; relative to: high Mg2+ state, higher = stronger signaling): 0.969

Excerpt of the above (study 3):
AGCTGAAT: -0.126
ATAAGCCA: -0.225
